# Measured values from different studies.
# Several values in a cell are separate wells, animals, samples, runs or records. ± marks the error that the study gave.
# CBL SH2 domain: E3 ubiquitin-protein ligase CBL, SH2 domain (CBL, Homo sapiens, UniProt P22681)
# Ephx2: Bifunctional epoxide hydrolase 2 (Ephx2, Mus musculus, UniProt P34914)
# UniProt P34914, sequence (whole entry, looked up): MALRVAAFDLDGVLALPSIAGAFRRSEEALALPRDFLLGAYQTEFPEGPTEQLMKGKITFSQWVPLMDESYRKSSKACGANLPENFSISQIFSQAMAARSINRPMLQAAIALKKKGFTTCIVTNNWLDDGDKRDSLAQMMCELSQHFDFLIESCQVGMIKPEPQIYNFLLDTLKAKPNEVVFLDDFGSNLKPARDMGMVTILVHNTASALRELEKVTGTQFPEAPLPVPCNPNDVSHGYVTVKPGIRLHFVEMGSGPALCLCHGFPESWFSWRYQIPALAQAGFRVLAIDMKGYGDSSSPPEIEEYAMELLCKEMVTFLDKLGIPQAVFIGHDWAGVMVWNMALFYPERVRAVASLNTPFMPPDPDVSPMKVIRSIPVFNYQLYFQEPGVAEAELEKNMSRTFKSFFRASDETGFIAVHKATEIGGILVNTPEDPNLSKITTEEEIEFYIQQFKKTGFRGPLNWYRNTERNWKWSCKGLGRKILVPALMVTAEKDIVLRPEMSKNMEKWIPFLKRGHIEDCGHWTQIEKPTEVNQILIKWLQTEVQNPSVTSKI
# FAAH: Fatty-acid amide hydrolase 1 (FAAH, Homo sapiens, UniProt O00519)
# UniProt O00519, sequence (whole entry, looked up): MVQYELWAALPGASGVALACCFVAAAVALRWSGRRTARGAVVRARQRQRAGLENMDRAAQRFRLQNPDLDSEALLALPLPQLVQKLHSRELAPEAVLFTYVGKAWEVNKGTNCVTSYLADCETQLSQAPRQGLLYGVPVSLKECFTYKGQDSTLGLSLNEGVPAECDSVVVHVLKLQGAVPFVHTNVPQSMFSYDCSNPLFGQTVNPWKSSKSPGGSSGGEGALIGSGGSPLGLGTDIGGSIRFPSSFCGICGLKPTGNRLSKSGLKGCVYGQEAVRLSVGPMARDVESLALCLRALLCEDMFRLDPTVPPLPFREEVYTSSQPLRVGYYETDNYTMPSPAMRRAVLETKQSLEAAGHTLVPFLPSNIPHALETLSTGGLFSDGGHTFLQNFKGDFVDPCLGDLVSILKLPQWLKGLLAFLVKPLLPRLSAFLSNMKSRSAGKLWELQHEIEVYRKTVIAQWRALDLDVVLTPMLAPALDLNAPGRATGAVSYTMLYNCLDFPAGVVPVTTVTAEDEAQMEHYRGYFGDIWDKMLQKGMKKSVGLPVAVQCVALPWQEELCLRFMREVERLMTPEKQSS
# UniProt Q9BYW2, sequence (whole entry, looked up): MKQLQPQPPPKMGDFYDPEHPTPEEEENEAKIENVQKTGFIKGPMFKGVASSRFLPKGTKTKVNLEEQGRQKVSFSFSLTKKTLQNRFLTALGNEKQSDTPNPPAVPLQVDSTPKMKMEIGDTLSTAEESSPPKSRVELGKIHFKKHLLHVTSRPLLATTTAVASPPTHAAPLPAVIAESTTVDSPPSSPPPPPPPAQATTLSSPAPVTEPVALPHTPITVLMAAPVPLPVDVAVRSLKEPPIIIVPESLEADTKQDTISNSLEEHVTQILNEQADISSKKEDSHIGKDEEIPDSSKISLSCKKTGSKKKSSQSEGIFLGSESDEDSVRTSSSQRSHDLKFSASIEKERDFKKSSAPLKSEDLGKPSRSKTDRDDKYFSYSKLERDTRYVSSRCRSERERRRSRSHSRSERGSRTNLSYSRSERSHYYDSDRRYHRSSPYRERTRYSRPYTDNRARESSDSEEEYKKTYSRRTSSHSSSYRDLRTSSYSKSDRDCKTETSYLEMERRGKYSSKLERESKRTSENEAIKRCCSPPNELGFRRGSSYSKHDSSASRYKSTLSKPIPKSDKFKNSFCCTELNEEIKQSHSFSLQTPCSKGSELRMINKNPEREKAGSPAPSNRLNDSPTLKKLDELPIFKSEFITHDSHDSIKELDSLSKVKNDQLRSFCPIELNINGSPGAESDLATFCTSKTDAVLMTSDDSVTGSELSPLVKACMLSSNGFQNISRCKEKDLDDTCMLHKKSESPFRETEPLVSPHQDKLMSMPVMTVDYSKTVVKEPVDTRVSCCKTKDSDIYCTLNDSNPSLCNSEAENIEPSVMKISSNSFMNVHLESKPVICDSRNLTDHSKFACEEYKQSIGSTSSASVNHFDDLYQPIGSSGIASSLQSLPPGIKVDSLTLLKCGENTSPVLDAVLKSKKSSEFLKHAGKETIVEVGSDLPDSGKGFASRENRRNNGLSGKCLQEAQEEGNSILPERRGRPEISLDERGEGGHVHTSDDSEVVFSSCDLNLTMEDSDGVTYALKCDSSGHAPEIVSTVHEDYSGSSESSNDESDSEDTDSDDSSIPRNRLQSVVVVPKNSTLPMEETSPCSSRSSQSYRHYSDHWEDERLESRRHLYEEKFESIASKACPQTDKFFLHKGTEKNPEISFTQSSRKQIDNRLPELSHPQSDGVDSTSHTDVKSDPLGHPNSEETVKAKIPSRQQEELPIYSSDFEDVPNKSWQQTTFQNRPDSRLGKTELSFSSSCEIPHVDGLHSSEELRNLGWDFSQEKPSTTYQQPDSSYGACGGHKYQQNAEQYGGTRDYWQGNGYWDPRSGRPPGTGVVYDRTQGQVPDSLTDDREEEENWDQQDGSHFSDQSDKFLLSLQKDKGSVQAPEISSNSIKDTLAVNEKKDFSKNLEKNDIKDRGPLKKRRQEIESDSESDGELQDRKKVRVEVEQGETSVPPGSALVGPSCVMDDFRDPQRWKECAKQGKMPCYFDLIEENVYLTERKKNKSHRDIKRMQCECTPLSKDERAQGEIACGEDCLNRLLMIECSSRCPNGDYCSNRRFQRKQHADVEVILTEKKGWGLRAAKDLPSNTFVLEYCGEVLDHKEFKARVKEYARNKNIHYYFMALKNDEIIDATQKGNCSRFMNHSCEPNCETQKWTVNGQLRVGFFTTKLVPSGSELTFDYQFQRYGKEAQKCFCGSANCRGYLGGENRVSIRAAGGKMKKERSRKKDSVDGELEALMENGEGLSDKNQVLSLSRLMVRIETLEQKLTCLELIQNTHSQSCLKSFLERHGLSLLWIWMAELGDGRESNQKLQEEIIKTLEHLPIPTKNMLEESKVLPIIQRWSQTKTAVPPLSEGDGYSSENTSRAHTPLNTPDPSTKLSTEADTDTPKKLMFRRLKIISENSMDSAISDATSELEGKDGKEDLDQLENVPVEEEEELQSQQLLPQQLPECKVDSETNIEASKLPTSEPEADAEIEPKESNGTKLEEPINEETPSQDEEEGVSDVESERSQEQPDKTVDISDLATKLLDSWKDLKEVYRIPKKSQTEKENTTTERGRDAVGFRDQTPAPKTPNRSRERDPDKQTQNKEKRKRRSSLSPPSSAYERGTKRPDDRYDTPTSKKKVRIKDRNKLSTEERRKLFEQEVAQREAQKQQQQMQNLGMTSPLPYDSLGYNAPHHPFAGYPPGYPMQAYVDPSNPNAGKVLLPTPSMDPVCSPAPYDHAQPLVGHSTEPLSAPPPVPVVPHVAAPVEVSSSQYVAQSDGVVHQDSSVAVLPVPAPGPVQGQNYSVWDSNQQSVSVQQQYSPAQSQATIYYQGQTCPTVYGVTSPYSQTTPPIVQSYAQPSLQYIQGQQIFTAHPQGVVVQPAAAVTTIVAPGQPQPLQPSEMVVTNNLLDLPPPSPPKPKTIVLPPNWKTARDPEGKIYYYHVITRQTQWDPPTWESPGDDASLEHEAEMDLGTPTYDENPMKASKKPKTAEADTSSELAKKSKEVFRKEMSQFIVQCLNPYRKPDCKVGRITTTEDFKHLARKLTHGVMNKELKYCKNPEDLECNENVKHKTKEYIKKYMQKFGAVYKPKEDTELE
# UniProt P34913, sequence (whole entry, looked up): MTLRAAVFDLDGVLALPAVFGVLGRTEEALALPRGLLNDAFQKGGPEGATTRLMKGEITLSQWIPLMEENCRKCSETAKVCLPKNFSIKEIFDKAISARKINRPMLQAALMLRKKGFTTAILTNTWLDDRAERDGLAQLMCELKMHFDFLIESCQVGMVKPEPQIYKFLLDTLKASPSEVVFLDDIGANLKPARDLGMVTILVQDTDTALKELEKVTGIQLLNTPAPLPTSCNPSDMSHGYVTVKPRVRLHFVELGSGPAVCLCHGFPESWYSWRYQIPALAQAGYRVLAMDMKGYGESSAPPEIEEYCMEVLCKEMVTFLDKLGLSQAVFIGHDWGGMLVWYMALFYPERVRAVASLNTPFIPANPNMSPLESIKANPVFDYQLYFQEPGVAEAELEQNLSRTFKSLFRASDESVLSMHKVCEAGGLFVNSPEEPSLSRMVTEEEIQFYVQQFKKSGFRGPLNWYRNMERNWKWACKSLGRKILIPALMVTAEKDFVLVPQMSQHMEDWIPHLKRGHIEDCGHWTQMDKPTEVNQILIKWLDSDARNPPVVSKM
Compound,target,mode,setting,measurement,result
O=C(O)CCCC[C@@H]1SC[C@@H]2NC(=O)N[C@@H]21,"Histone-lysine N-methyltransferase SETD2 (SETD2, Homo sapiens, UniProt Q9BYW2)",inhibitor,"apparent, bead displacement artifact",IC50,1330 nM and 1300 to 1700 nM
CC[C@H](C)[C@H](NC(=O)[C@H](CC(=O)O)NC(=O)[C@H](CC(C)C)NC(=O)[C@H](Cc1ccc(OP(=O)(O)O)cc1)NC(=O)[C@@H](NC(=O)[C@@H]1CCCN1C(=O)[C@H](CO)NC(=O)[C@H](C)NC(=O)[C@H](CCCCN)NC(=O)[C@H](C)NC(=O)[C@H](CC(C)C)NC(=O)[C@H](CC(N)=O)NC(=O)[C@H](CCC(N)=O)NC(=O)c1ccc2c(c1)C(=O)OC21c2ccc(N(C)C)cc2Oc2cc(N(C)C)ccc21)C(C)C)C(=O)N[C@@H](CC(C)C)C(=O)NCC(=O)N[C@@H](CC(=O)O)C(=O)O,CBL SH2 domain,,human protein,Kd,1530 nM
Cc1ccc(S(=O)(=O)Nc2c(N3CCC(NC(=O)Nc4ccc(F)c(C)c4)CC3)c(=O)c2=O)cc1,Ephx2,,,IC50,656 ± 72.4 nM
Cc1ccccc1CN1CCC(C(=O)Nc2ccc(-c3cnc4ccccc4c3)cc2)CC1,FAAH,,,IC50,94.4 nM
O=C(Nc1ccc(F)c(Cl)c1)NC1CCN(c2c(NS(=O)(=O)Cc3ccccc3)c(=O)c2=O)CC1,Ephx2,,,IC50,741 ± 45.2 nM
O=C(Nc1ccc(-c2cnc3ccccc3c2)cc1)C1CCN(Cc2ccc([N+](=O)[O-])cc2)CC1,FAAH,,,IC50,15.8 nM
O=C(Nc1ccc(C(F)(F)F)c(F)c1)NC1CCN(c2c(NS(=O)(=O)Cc3ccccc3)c(=O)c2=O)CC1,Ephx2,,,IC50,2550 ± 328 nM
Cc1ccc(CN2CCC(C(=O)Nc3ccc(-c4cnc5ccccc5c4)cc3)CC2)cc1,FAAH,,,IC50,81.4 nM
CC(C)C[C@H](NC(=O)[C@H](CC(C)C)NC(=O)[C@H](CO)NC(=O)[C@@H]1CCCN1C(=O)[C@H](Cc1ccc(OP(=O)(O)O)cc1)NC(=O)[C@@H]1CCCN1C(=O)[C@H](C)NC(=O)[C@@H](NC(=O)[C@H](CS)NC(=O)[C@H](CCCCN)NC(=O)[C@@H](NC(=O)[C@H](CC(N)=O)NC(=O)[C@@H](NC(=O)[C@H](Cc1ccc(O)cc1)NC(=O)c1ccc2c(c1)C(=O)OC21c2ccc(N(C)C)cc2Oc2cc(N(C)C)ccc21)C(C)C)C(C)C)C(C)C)C(=O)N[C@@H](CO)C(=O)N[C@@H](CO)C(=O)N[C@@H](CCC(=O)O)C(=O)N[C@@H](CC(=O)O)C(=O)O,CBL SH2 domain,,human protein,Kd,1190 nM
O=C(Nc1ccc(-c2cnc3ccccc3c2)cc1)C1CCN(CC2CCCCC2)CC1,FAAH,,,IC50,147 nM
O=c1[nH]cnc2c(CN3C[C@H](CO)[C@@H](O)C3)c[nH]c12,"Purine nucleoside phosphorylase (Bacteroides fragilis, UniProt Q5LAA3)",,,Ki,2.3 ± 0.02 nM
NCCc1c[nH]c2ccc(O)cc12,"serotonin transporter (Schistosoma mansoni, UniProt Q3I1M7)",,,EC50,342 nM
O=C(Nc1ccc(Cl)c(F)c1)NC1CCN(c2c(NS(=O)(=O)Cc3ccccc3)c(=O)c2=O)CC1,"Bifunctional epoxide hydrolase 2 (EPHX2, Homo sapiens, UniProt P34913)",,,IC50,19.5 ± 2.6 nM

# For quick reference, copied from above:
Compound,target,mode,setting,measurement,result
O=C(Nc1ccc(F)c(Cl)c1)NC1CCN(c2c(NS(=O)(=O)Cc3ccccc3)c(=O)c2=O)CC1,Ephx2,,,IC50,741 ± 45.2 nM
